Experimental data from different studies.
Protocols differ between the studies behind these lines.
Observed: metabolic stability
Host: human

CCn1cc(C(=O)NCCNCCO)c(=O)c2cc(OCc3ccc(C(C)(C)C)cc3)c(Cl)cc21  microsomal CLint (liver microsomes; 1 µM): < 11.6 µL/min/mg
[2H]c1c(NS(C)(=O)=O)c([2H])c2c(C(=O)c3ccc(OCCCN(CCCC)CCCC)cc3)c(CCCC)oc2c1[2H]  microsomal CLint (liver microsomes; 1 µM): 13.5 µL/min/mg
Cc1cc(N2CCC(CO)(C3CC3)C2=O)cc(C(=O)NCc2cc(F)cc(-c3cnn(C)c3)c2)n1 (centres unmarked)  microsomal CLint (liver microsomes; 0.5 µM): 41 µL/min/mg
CNC(=O)C1CCN(c2cc(C)c(F)cc2NC(=O)c2ccc(-c3c(C)ccc4[nH]ncc34)c(C)c2)CC1  microsomal CLint (liver microsomes; 2 µM): 2.7 µL/min/mg
COC(=O)c1ccc2c(c1)NC(=O)/C2=C(\Nc1ccc2c(c1)CCN2C(=O)CN1CCOCC1)c1ccccc1  microsomal CLint (liver microsomes; 10 µM, pH 7.4): 90 µL/min/mg
CCC(C)n1c(C(=O)Nc2cnc(C(=O)NC)n(CC(C)C)c2=O)ncc(NC(=O)c2ncc(NC(=O)c3ccccc3)c(=O)n2Cc2ccc(OC)cc2)c1=O (centres unmarked)  microsomal CLint (liver microsomes; 2 µM, pH 7.4): 6 µL/min/mg
CNC(=O)C1CCN(c2ccccc2NC(=O)c2ccc(-c3cc(O)ccc3C)c(C)c2)CC1  microsomal CLint (liver microsomes; 2 µM): 37 µL/min/mg
COc1nc2[nH]c(C(F)(F)F)nc2nc1Nc1ccc(OC(F)(F)F)cc1F  microsomal CLint (hepatocytes; 1 µM): < 8.2 µL/min/mg
CNC(=O)c1cc(C)ccc1NC(=O)c1ccc(-c2cc(O)ccc2C)c(C)c1  microsomal CLint (liver microsomes; 2 µM): 3 µL/min/mg
CC12CC3CC(C1)CC(NC(=O)NC1CCC(Oc4ccc(C(=O)O)cc4)CC1)(C3)C2 (centres unmarked)  microsomal CLint (liver microsomes): 13 µL/min/mg
O=C(C1CCN(c2nnnn2-c2ccc(N3CCCC3)cc2)CC1)N1CCCc2ccccc21  microsomal CLint (liver microsomes; 1 µM): > 400 µL/min/mg
Cc1cc(N2CC[C@@](C#N)(C3CC3)C2=O)cc(NC(=O)Cc2ccccc2)n1  microsomal CLint (liver microsomes; 0.5 µM): 106 µL/min/mg
COc1cc(O)c(-c2cc(-c3cc(-c4c(O)cc(OC)c5c4C[C@@H](C)N[C@@H]5C)c4cc(C)cc(OC)c4c3O)c(O)c3c(OC)cc(C)cc23)c2c1[C@@H](C)N[C@H](C)C2  microsomal CLint (liver microsomes; 1 µM): < 11.6 µL/min/mg
COc1cc2c(=O)c(C(=O)NCCNCCO)cn(Cc3ccccc3)c2cc1OCc1ccc(C(C)(C)C)cc1  microsomal CLint (liver microsomes; 1 µM): < 11.6 µL/min/mg
COc1cc(C)c(-c2ccc(O)c3c2C[C@@H](C)N[C@@H]3C)c2cccc(O)c12 (single isomer, unassigned)  microsomal CLint (liver microsomes; 1 µM): 15.4 µL/min/mg
COc1cc(OC)c(F)c(/C=C/c2cnc3ccn(S(=O)(=O)c4cn(CCF)cn4)c3n2)c1F  microsomal CLint (liver microsomes; 1 µM, pH 7.4): 100 µL/min/mg
CN1C(=O)C2(Nc3ccccc3C(=O)N2Cc2ccccc2)c2cc(Br)ccc21 (centres unmarked)  microsomal CLint (liver microsomes): > 300 µL/min/mg
CNC(=O)C1CCN(c2cc(C)c(F)cc2NC(=O)c2ccc(-c3cc(O)ccc3C)c(C)c2)CC1  microsomal CLint (liver microsomes; 2 µM): 11 µL/min/mg
CCn1cc(C(=O)NCCNCCO)c(=O)c2cc(OCc3ccc(C(F)(F)F)cc3)c(C(F)(F)F)cc21  microsomal CLint (liver microsomes; 1 µM): < 11.6 µL/min/mg
O=C(CS(=O)(=O)Cc1ccco1)C12CC3CC(CC(C3)C1)C2  microsomal CLint (liver microsomes): < 3 µL/min/mg
